Assay results gathered from unrelated publications.
Protocols differ between the studies behind these lines. ± gives the spread as reported.
GLP1R: Glucagon-like peptide 1 receptor (GLP1R, Homo sapiens, UniProt P43220)
DCN1-like protein 1: DCN1-like protein 1 (Homo sapiens, UniProt Q96GG9)
UniProt Q96GG9, sequence (whole entry, looked up): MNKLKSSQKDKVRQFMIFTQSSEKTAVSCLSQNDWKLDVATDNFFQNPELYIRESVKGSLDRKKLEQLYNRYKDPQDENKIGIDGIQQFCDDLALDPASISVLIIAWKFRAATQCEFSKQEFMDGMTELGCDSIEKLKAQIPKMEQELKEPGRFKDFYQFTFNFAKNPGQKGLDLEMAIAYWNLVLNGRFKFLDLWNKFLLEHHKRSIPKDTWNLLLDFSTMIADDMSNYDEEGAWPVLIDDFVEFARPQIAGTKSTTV
UniProt P10635, sequence (whole entry, unmodified, looked up): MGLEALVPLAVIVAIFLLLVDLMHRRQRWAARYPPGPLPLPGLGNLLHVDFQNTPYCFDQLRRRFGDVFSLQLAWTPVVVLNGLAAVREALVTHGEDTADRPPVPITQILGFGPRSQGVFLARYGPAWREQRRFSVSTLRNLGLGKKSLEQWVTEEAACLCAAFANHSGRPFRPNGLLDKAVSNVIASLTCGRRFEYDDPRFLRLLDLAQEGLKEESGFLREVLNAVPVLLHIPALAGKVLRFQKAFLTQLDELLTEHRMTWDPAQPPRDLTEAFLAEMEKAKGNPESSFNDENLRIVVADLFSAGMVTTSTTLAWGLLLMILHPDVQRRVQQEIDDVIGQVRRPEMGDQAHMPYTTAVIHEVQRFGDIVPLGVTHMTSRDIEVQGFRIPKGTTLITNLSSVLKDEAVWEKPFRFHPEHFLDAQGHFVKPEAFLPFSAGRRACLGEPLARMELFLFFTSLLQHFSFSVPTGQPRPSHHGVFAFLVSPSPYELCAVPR
UniProt Q8VJU4, sequence (whole entry, looked up): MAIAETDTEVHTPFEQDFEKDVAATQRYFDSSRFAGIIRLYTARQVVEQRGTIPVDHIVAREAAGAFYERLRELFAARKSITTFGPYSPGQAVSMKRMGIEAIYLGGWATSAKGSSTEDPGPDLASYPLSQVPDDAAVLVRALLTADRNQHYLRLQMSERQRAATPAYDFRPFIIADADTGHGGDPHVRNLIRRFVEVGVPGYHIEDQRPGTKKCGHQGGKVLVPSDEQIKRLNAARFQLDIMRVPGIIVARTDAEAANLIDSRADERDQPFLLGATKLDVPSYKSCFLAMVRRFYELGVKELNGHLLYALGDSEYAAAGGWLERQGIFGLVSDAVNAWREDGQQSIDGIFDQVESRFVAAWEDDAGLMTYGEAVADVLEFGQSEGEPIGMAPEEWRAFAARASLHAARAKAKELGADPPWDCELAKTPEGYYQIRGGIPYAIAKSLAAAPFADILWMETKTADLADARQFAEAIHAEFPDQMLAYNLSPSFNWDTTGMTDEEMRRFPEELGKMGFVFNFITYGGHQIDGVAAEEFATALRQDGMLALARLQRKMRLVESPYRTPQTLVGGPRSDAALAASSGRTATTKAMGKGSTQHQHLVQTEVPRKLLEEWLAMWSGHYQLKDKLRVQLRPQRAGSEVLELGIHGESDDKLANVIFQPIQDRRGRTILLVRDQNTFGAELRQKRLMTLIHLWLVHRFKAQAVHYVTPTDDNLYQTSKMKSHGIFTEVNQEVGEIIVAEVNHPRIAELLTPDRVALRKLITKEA
UniProt Q16531, sequence (whole entry, looked up): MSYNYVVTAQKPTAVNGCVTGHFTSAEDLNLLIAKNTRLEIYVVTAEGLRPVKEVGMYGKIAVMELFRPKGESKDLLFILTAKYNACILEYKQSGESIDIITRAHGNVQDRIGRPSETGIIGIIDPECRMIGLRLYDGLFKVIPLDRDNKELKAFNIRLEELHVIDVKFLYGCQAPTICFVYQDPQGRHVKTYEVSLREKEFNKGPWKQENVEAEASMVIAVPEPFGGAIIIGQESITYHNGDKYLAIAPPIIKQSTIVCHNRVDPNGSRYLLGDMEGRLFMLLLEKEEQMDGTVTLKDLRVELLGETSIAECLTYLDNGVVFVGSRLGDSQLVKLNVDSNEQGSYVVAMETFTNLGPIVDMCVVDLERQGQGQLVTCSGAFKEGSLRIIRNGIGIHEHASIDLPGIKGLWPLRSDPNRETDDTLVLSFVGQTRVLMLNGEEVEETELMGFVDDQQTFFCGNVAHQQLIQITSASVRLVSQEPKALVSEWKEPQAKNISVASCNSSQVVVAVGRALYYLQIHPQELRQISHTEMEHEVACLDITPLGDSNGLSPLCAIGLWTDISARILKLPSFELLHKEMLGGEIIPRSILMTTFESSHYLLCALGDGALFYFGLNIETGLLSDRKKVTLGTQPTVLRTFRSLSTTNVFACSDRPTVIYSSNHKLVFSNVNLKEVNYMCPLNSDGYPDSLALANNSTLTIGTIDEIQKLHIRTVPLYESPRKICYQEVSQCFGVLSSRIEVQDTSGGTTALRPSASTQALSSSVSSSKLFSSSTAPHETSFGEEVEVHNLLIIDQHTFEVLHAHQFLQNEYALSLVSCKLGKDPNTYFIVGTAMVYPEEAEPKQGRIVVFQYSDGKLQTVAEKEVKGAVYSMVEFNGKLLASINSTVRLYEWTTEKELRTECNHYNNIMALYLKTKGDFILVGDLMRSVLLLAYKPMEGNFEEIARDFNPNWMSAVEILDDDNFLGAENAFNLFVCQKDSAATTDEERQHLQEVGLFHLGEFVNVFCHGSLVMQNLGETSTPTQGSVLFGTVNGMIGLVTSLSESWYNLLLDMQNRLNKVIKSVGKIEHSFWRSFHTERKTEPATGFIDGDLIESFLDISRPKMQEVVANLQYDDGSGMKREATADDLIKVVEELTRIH
UniProt Q9UNU6, sequence (whole entry, looked up): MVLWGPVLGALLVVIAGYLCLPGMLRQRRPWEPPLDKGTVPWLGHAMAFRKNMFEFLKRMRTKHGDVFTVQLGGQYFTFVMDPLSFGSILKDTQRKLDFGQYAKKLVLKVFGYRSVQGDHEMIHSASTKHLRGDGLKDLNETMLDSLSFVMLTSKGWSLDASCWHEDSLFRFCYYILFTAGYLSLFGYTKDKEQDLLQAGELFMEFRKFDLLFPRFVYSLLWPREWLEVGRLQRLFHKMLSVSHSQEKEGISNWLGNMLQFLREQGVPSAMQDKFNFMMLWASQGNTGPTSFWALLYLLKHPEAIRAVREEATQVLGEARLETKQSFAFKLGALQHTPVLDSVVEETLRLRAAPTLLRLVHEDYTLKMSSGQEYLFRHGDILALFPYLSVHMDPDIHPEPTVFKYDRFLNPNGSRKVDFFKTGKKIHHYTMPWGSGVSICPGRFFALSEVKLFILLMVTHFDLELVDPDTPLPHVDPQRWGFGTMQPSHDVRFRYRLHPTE
UniProt P12821, sequence (whole entry, looked up): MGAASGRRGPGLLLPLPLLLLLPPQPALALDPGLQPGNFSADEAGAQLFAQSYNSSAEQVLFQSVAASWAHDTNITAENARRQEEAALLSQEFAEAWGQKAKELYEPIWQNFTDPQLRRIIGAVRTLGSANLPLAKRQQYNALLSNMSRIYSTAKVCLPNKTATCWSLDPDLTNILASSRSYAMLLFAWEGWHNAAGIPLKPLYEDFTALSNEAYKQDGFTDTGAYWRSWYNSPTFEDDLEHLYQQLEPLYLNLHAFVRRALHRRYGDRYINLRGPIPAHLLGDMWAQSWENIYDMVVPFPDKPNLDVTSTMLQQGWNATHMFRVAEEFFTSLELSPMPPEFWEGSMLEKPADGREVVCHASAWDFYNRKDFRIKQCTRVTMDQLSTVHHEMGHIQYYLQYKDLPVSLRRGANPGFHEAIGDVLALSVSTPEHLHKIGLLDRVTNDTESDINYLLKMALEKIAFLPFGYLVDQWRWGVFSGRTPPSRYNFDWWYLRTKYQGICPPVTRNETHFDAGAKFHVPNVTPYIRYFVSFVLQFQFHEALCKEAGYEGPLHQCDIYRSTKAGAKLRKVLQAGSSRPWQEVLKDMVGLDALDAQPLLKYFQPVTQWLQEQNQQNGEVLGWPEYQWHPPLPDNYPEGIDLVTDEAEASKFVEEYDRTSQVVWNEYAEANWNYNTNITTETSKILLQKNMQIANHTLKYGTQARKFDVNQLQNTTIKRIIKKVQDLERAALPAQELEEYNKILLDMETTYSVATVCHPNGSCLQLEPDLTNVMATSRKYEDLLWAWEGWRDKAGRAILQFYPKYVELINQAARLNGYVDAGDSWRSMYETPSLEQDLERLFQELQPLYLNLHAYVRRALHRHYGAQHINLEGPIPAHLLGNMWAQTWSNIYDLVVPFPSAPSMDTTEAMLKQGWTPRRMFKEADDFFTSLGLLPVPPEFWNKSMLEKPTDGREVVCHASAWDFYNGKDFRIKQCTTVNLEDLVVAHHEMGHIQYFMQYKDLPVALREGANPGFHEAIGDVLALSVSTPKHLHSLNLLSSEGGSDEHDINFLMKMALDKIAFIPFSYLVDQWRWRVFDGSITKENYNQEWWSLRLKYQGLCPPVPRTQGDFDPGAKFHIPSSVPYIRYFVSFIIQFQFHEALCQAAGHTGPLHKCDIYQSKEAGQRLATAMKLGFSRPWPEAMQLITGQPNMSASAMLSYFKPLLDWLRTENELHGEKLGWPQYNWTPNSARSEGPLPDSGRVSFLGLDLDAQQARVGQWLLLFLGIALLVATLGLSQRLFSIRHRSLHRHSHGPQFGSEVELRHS
UniProt P08172, sequence (whole entry, looked up): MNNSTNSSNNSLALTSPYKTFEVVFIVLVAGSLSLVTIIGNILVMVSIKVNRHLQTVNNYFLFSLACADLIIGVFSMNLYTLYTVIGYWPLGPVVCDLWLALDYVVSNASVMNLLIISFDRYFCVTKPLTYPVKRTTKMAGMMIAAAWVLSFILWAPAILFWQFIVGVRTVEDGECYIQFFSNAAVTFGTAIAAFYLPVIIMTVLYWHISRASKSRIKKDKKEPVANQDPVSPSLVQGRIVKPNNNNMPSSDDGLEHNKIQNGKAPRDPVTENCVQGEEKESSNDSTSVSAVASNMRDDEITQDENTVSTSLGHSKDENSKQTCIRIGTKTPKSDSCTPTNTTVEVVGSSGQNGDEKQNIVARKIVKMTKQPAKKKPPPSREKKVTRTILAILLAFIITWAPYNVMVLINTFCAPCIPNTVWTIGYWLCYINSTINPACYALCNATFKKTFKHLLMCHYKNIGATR

SMILES	target or system	assay	system	setting	how to read	measurement	value
CC[C@H](C)[C@H](NC(=O)[C@H](Cc1ccccc1)NC(=O)[C@H](CCC(=O)O)NC(=O)[C@H](CCCNC(=N)N)NC(=O)[C@H](C)NC(=O)[C@H](C)NC(=O)[C@H](CCC(N)=O)NC(=O)[C@H](CCCCNc1c(NCCCCCN(O)C(=O)CCC(=O)NCCCCCN(O)C(=O)CCC(=O)NCCCCCN(O)C(C)=O)c(=O)c1=O)NC(=O)[C@H](CCC(=O)O)NC(=O)[C@H](CC(C)C)NC(=O)[C@H](Cc1ccc(O)cc1)NC(=O)[C@H](CO)NC(=O)[C@H](CO)NC(=O)[C@H](CCCCNc1c(NCCCCCN(O)C(=O)CCC(=O)NCCCCCN(O)C(=O)CCC(=O)NCCCCCN(O)C(C)=O)c(=O)c1=O)NC(=O)[C@H](CC(=O)O)NC(=O)[C@H](CO)NC(=O)[C@@H](NC(=O)[C@H](Cc1ccccc1)NC(=O)[C@@H](NC(=O)CNC(=O)[C@H](CCC(=O)O)NC(=O)[C@H](C)NC(=O)CCc1cnc[nH]1)[C@@H](C)O)[C@@H](C)O)C(=O)N[C@@H](C)C(=O)N[C@@H](Cc1c[nH]c2ccccc12)C(=O)N[C@@H](CC(C)C)C(=O)N[C@H](C(=O)N[C@@H](CCCNC(=N)N)C(=O)NCC(=O)N[C@@H](CCCNC(=N)N)C(=O)N[C@@H](CCCCNC(=O)COCCOCCNC(=O)COCCOCCNC(=O)CC[C@H](NC(=O)CCCCCCCCCCCCCCCCC(=O)O)C(=O)O)C(=O)O)C(C)C	GLP1R	cAMP reporter gene, agonist, CRE luciferase	BHK	with Zr, 1% HSA		EC50	0.0018 µM
Cc1nn(-c2ccccc2)c2c1[C@H](c1ccc(F)cc1)[C@H](NC(=O)c1cccc(C(F)(F)F)c1)C(=O)N2CCO[Si](C)(C)C(C)(C)C	DCN1-like protein 1					IC50	> 15 µM
COc1cc(Nc2ncc(F)c(Nc3ccc4c(n3)NC(=O)C(C)(C)O4)n2)cc(OC)c1OC	ACE (Homo sapiens, UniProt P12821)					IC50	> 10 µM
CNC(C)Cc1ccc2c(c1)OCO2 (centres unmarked)	Cytochrome P450 2D6 (CYP2D6, Homo sapiens, UniProt P10635)	enzyme activity, time-dependent inhibitor		preincubation with NADPH, with: dextromethorphan O-demethylation		IC50	0.53 µM
CC(=O)NCCN1C(=O)[C@@H](NC(=O)c2cccc(C(F)(F)F)c2)[C@@H](c2ccc(F)cc2)c2c(C)nn(-c3ccccc3)c21	DCN1-like protein 1					IC50	> 15 µM
C[C@H]1CN(c2n[nH]c3nc(N[C@H]4CC[C@H](NS(=O)(=O)CCC(F)(F)F)CC4)ncc23)CCO1	DDB1 (Homo sapiens, UniProt Q16531)	inhibitor, Kinobeads competition profiling		0.8 µM	relative to: vehicle	relative abundance	1.38
Cc1cc(C)n2c(Nc3ccc4c(c3)OCCO4)c(-c3cccc(Br)c3)nc2n1	Hemagglutinin (HA, Influenza A virus, UniProt Q91MA7)	viral replication	A/Hong Kong/1/1968 (H3N2)			EC50	0.45 ± 0.01 µM
CCOC(=O)c1cc([C@H]2c3c(C)nn(-c4ccccc4)c3NC(=O)[C@H]2NC(=O)c2cccc(C(F)(F)F)c2)ccc1F	DCN1-like protein 1					IC50	> 15 µM
Clc1cc(Cl)cc(N2CCNCC2)c1	CHRM2 (Homo sapiens, UniProt P08172)	ERK1/2 phosphorylation, agonist	CHO cells			EC50	> 20 µM
CC[C@@H](CO)NC(=O)[C@@H]1C=C2c3cccc4c3c(cn4C)C[C@H]2N(C)C1	HTR1A (Homo sapiens, UniProt P08908)					Ki	0.025 µM
Cc1cccc([C@H](C)c2cnc[nH]2)c1C	7-alpha-hydroxycholest-4-en-3-one 12-alpha-hydroxylase (Homo sapiens, UniProt Q9UNU6)	binding		20 min, pH 7.4		Kd	396 µM
CCCc1cc(O)c2c(c1)OC(C)(C)[C@@H]1CCC(C)=C[C@@H]21	TRPV3 (Homo sapiens, UniProt Q8NET8, H430A)	calcium uptake, agonist	HEK293S	mutant H430A, site 3		EC50	3.84 ± 0.18 µM
CC[C@H](C)[C@H](NC(=O)[C@H](Cc1ccccc1)NC(=O)[C@H](CCC(=O)O)NC(=O)[C@H](CCCNC(=N)N)NC(=O)[C@H](C)NC(=O)[C@H](C)NC(=O)[C@H](CCC(N)=O)NC(=O)[C@H](CCC(=O)O)NC(=O)[C@H](CCC(=O)O)NC(=O)[C@H](CC(C)C)NC(=O)[C@H](Cc1ccc(O)cc1)NC(=O)[C@H](CO)NC(=O)[C@H](CO)NC(=O)[C@H](CCCCNc1c(NCCCCCN(O)C(=O)CCC(=O)NCCCCCN(O)C(=O)CCC(=O)NCCCCCN(O)C(C)=O)c(=O)c1=O)NC(=O)[C@H](CC(=O)O)NC(=O)[C@H](CO)NC(=O)[C@@H](NC(=O)[C@H](Cc1ccccc1)NC(=O)[C@@H](NC(=O)CNC(=O)[C@H](CCC(=O)O)NC(=O)[C@H](C)NC(=O)CCc1cnc[nH]1)[C@@H](C)O)[C@@H](C)O)C(=O)N[C@@H](C)C(=O)N[C@@H](Cc1c[nH]c2ccccc12)C(=O)N[C@@H](CC(C)C)C(=O)N[C@H](C(=O)N[C@@H](CCCCNc1c(NCCCCCN(O)C(=O)CCC(=O)NCCCCCN(O)C(=O)CCC(=O)NCCCCCN(O)C(C)=O)c(=O)c1=O)C(=O)NCC(=O)N[C@@H](CCCNC(=N)N)C(=O)N[C@@H](CCCCNC(=O)COCCOCCNC(=O)COCCOCCNC(=O)CC[C@H](NC(=O)CCCCCCCCCCCCCCCCC(=O)O)C(=O)O)C(=O)O)C(C)C	GLP1R	cAMP reporter gene, agonist, CRE luciferase	BHK	with Zr, 1% HSA		EC50	0.0027 µM
CC(NC(C)(C)C)C(=O)c1cccc(Cl)c1 (centres unmarked)	Cytochrome P450 2D6 (CYP2D6, Homo sapiens, UniProt P10635, R296C/S486T/T107I)			pH 7.4		IC50	40.6 µM
CC[C@H](C)[C@H](NC(=O)[C@H](Cc1ccccc1)NC(=O)[C@H](CCC(=O)O)NC(=O)[C@H](CCCNC(=N)N)NC(=O)[C@H](C)NC(=O)[C@H](C)NC(=O)[C@H](CCC(N)=O)NC(=O)[C@H](CCC(=O)O)NC(=O)[C@H](CCC(=O)O)NC(=O)[C@H](CC(C)C)NC(=O)[C@H](Cc1ccc(O)cc1)NC(=O)[C@H](CO)NC(=O)[C@H](CO)NC(=O)[C@@H](NC(=O)[C@H](CC(=O)O)NC(=O)[C@H](CO)NC(=O)[C@@H](NC(=O)[C@H](Cc1ccccc1)NC(=O)[C@@H](NC(=O)CNC(=O)[C@H](CCC(=O)O)NC(=O)[C@H](C)NC(=O)CCc1c[nH]cn1)[C@@H](C)O)[C@@H](C)O)C(C)C)C(=O)N[C@@H](C)C(=O)N[C@@H](Cc1c[nH]c2ccccc12)C(=O)N[C@@H](CC(C)C)C(=O)N[C@H](C(=O)N[C@@H](CCCNC(=N)N)C(=O)NCC(=O)N[C@@H](CCCNC(=N)N)C(=O)N[C@@H](CCCCNC(=O)COCCOCCNC(=O)COCCOCCNC(=O)CC[C@H](NC(=O)CCCCCCCCCCCCCCCCC(=O)O)C(=O)O)C(=O)NCC(=O)NCC(=O)N[C@@H](CO)C(=O)N[C@@H](CCCCNc1c(NCCCCCN(O)C(=O)CCC(=O)NCCCCCN(O)C(=O)CCC(=O)NCCCCCN(O)C(C)=O)c(=O)c1=O)C(=O)O)C(C)C [zirconium-89 labelled]			rat, lung	iv, 3 nmol/kg, 4 h, ex vivo		tissue uptake	1.91 %ID/g
Cc1nn(-c2ccccc2)c2c1[C@H](c1ccc(F)cc1)[C@H](NC(=O)c1cccc(C(F)(F)F)c1)C(=O)N2CCNC(=O)OC(C)(C)C	DCN1-like protein 1					IC50	> 15 µM
CC(C)(COP(=O)(O)OP(=O)(O)OC[C@H]1O[C@@H](n2cnc3c(N)ncnc32)[C@H](O)[C@@H]1OP(=O)(O)O)[C@@H](O)C(=O)NCCC(=O)NCCS	icl2 (Mycobacterium tuberculosis, UniProt Q8VJU4)					Kd	209 ± 9 µM

A few entries again:
SMILES	target or system	assay	system	setting	how to read	measurement	value
COc1cc(Nc2ncc(F)c(Nc3ccc4c(n3)NC(=O)C(C)(C)O4)n2)cc(OC)c1OC	ACE (Homo sapiens, UniProt P12821)					IC50	> 10 µM
CNC(C)Cc1ccc2c(c1)OCO2 (centres unmarked)	Cytochrome P450 2D6 (CYP2D6, Homo sapiens, UniProt P10635)	enzyme activity, time-dependent inhibitor		preincubation with NADPH, with: dextromethorphan O-demethylation		IC50	0.53 µM
